{"data": "Published values from different studies", "note": "Lines come from different studies, so protocols differ. ± marks the error that the study gave."}
{"Structure (SMILES)": "C#CCN1CCc2c([nH]c3ccccc23)C(=C)C1=O", "cell line": "HePAD38", "assay": "cell growth or viability, MTS", "setting": "14 days", "CC50 [µM]": 43.8}
{"Structure (SMILES)": "Cc1[nH]c2ccccc2c1CC(=O)N[C@@H](Cc1ccccc1)C(=O)N(C)c1ccccc1", "cell line": "TZM-GFP", "assay": "XTT", "setting": "72 h", "CC50 [µM]": "76 ± 9"}
{"Structure (SMILES)": "O=[N+]([O-])c1ccc(/C=N/N=C/c2ccc(Br)cc2)s1", "cell line": "MDBK", "assay": "CCK-8", "setting": "72 h", "CC50 [µM]": "> 296"}
{"Structure (SMILES)": "COc1ccc(-c2oc3ccc(-c4cc(OC)c(OC)c(OC)c4)cc3c2C#CC(C)(C)O)cc1", "cell line": "Huh-7.5.1", "CC50 [µM]": 86.1}
{"Structure (SMILES)": "C#CCN1CCC23C(=C(C(=O)OC)CC(C(=O)OC)C12)Nc1ccccc13 (centres unmarked)", "cell line": "HePAD38", "assay": "cell growth or viability, MTS", "setting": "14 days", "CC50 [µM]": "> 100"}
{"Structure (SMILES)": "COC(=O)C1NC(c2ccc[n+](C)c2)C23c4c5c6c7c8c9c(c%10c%11c2c2c4c4c%12c5c5c6c6c8c8c%13c9c9c%10c%10c%11c%11c2c2c4c4c%12c%12c5c5c6c8c6c8c%13c9c9c%10c%10c%11c2c2c4c4c%12c5c6c5c8c9c%10c2c45)C713 (centres unmarked)", "cell line": "DG-75", "assay": "cell growth or viability", "setting": "24 h", "CC50 [µM]": 18.8}
{"Structure (SMILES)": "COc1cc(O)c2c(O)c(C(C)=O)c(C)cc2c1", "cell line": "CHO-K1", "assay": "cell growth or viability, MTT", "setting": "72 h", "CC50 [µM]": "> 100"}
{"Structure (SMILES)": "C#CCN1CCc2c3n(c4ccccc24)C(=O)C(=C)CC3(C(=O)OC)C1 (centres unmarked)", "cell line": "HePAD38", "assay": "cell growth or viability, MTS", "setting": "14 days", "CC50 [µM]": 13.3}
{"Structure (SMILES)": "O=C(Nc1cc(F)c(F)c(F)c1)c1ccc(F)c(S(=O)(=O)N2CCC(NC(=O)C3CCC4(CC3)CCN(C(=O)CC35CC6CC(CC(C6)C3)C5)CC4)CC2)c1", "cell line": "HePAD38", "assay": "cell growth or viability", "CC50 [µM]": "> 60"}
{"Structure (SMILES)": "OC[C@H]1O[C@@H](n2cnc3c(O)ncnc32)[C@H](F)[C@@H]1O", "cell line": "CAKI-1", "assay": "sulforhodamine B", "setting": "11 days, galactose medium", "CC50 [µM]": 29}
{"Structure (SMILES)": "O=[N+]([O-])c1ccc(/C=N/N=C/c2ccc(F)cc2)o1", "cell line": "MDBK", "assay": "CCK-8", "setting": "72 h", "CC50 [µM]": "33.9 ± 22.2"}
{"Structure (SMILES)": "O=C(CC12CC3CC(CC(C3)C1)C2)NCCOCCOCCOCC(=O)NC1CCN(S(=O)(=O)c2cc(C(=O)Nc3cc(F)c(F)c(F)c3)ccc2F)CC1", "cell line": "HePAD38", "assay": "cell growth or viability", "CC50 [µM]": 16.6}
{"Structure (SMILES)": "O=[N+]([O-])c1ccc(/C=N/N=C/c2ccc(O)cc2)o1", "cell line": "MDBK", "assay": "CCK-8", "setting": "72 h", "CC50 [µM]": "18.4 ± 2.51"}
{"Structure (SMILES)": "O=c1ccn([C@@H]2O[C@H](CO)[C@@H](O)[C@H]2F)c(=O)[nH]1", "cell line": "CAKI-1", "assay": "sulforhodamine B", "setting": "11 days, galactose medium", "CC50 [µM]": "> 250"}
{"Structure (SMILES)": "O=[N+]([O-])c1ccc(/C=N/N=C/c2ccc(OCc3ccccc3)cc2)s1", "cell line": "MDBK", "assay": "CCK-8", "setting": "72 h", "CC50 [µM]": "> 274"}
{"Structure (SMILES)": "O=C(CC12CC3CC(CC(C3)C1)C2)NC1CCN(S(=O)(=O)c2cc(C(=O)Nc3cc(F)c(F)c(F)c3)ccc2F)CC1", "cell line": "HePAD38", "assay": "cell growth or viability", "CC50 [µM]": 7.7}
{"Structure (SMILES)": "Nc1ncnc2c1c(Br)cn2[C@@H]1O[C@H](CO)C[C@H]1O", "cell line": "MRC-5 SV2 fibroblasts", "assay": "resazurin", "setting": "72 h, 5% fetal bovine serum", "CC50 [µM]": 14.9}
{"Structure (SMILES)": "CCCCCCC(CC=CCCCCCCCC(=O)OCCOCn1cnc2c(=O)[nH]c(N)nc21)OC(=O)CCCCC1SCC2NC(=O)NC21 (centres unmarked)", "cell line": "Akata", "assay": "cytotoxicity", "CC50 [µM]": "> 60"}
{"Structure (SMILES)": "Nc1ncnc2c1ncn2[C@@H]1O[C@H](CO)[C@@H](O)[C@H]1F", "cell line": "CAKI-1", "assay": "cell growth or viability, SRB", "setting": "11 days", "CC50 [µM]": 69}
{"Structure (SMILES)": "CCOC(=O)C(C)NC(=O)CN1C(=O)S/C(=C\\c2ccc(F)cc2)C1=O (centres unmarked)", "cell line": "MDBK", "assay": "cell growth or viability, CCK-8", "setting": "72 h", "CC50 [µM]": "> 256"}
{"Structure (SMILES)": "O=[N+]([O-])c1ccc(/C=N/N=C/c2ccc(Cl)cc2)s1", "cell line": "MDBK", "assay": "CCK-8", "setting": "72 h", "CC50 [µM]": "> 340"}
{"Structure (SMILES)": "OC1(C#Cc2c(-c3ccsc3)oc3ccc(N4CCOCC4)cc23)CCCCC1", "cell line": "Huh-7.5.1", "CC50 [µM]": 43.6}
{"Structure (SMILES)": "CCCC[n+]1cccc(C2NC(C(=O)OCC)C34c5c6c7c8c9c%10c(c%11c%12c3c3c5c5c%13c6c6c7c7c9c9c%14c%10c%10c%11c%11c%12c%12c3c3c5c5c%13c%13c6c6c7c9c7c9c%14c%10c%10c%11c%11c%12c3c3c5c5c%13c6c7c6c9c%10c%11c3c56)C824)c1 (centres unmarked)", "cell line": "DG-75", "assay": "cell growth or viability", "setting": "24 h", "CC50 [µM]": "> 25"}
{"Structure (SMILES)": "COc1ccc(-c2oc3ccc(-c4cc(OC)c(OC)c(OC)c4)cc3c2C#CC2(O)CCCCC2)cc1", "cell line": "Huh-7.5.1", "CC50 [µM]": "> 100"}
{"Structure (SMILES)": "CCOC(=O)C(NC(=O)CN1C(=O)/C(=C/c2ccc3c(c2)OCO3)SC1=S)C(C)C (centres unmarked)", "cell line": "MDBK", "assay": "cell growth or viability, CCK-8", "setting": "72 h", "CC50 [µM]": "> 276"}
{"Structure (SMILES)": "CC1(C)NCCC[C@]2(C)[C@H]3CC=C4[C@@H]5C[C@@](C)(CO)CC[C@]5(C)CC[C@@]4(C)[C@]3(C)CC[C@@H]12", "cell line": "HFF primary foreskin fibroblasts", "assay": "cell viability, CellTiter-Glo", "CC50 [µM]": 17.6}
{"Structure (SMILES)": "CCCCCOC(=O)C12CCC(C)C(C)C1C1=CCC3C4(C)CCC(OC5OC(CO)C(OC6OC(C)C(O)C(O)C6O)C(O)C5OC5OC(C)C(O)C(O)C5O)C(C)(C)C4CCC3(C)C1(C)CC2 (centres unmarked)", "cell line": "MARC145", "assay": "cell growth or viability, MTT", "setting": "48 h", "CC50 [µM]": 81.3}
{"Structure (SMILES)": "CCC(NC(=O)CN1C(=O)N/C(=C\\c2ccc(C)cc2)C1=O)C(=O)OC (centres unmarked)", "cell line": "MDBK", "assay": "cell growth or viability, CCK-8", "setting": "72 h", "CC50 [µM]": 63.9}
{"Structure (SMILES)": "O=C(CC1CCN(C(=O)CC23CC4CC(CC(C4)C2)C3)CC1)NC1CCN(S(=O)(=O)c2cc(C(=O)Nc3cc(F)c(F)c(F)c3)ccc2F)CC1", "cell line": "HePAD38", "assay": "cell growth or viability", "CC50 [µM]": 28.8}
{"Structure (SMILES)": "O=[N+]([O-])c1ccc(/C=N/N=C/c2ccccc2)o1", "cell line": "MDBK", "assay": "CCK-8", "setting": "72 h", "CC50 [µM]": "11.6 ± 1.52"}
{"Structure (SMILES)": "O=C(CC12CC3CC(CC(C3)C1)C2)NCCOCC(=O)NC1CCN(S(=O)(=O)c2cc(C(=O)Nc3cc(F)c(F)c(F)c3)ccc2F)CC1", "cell line": "HePAD38", "assay": "cell growth or viability", "CC50 [µM]": 28.8}
{"Structure (SMILES)": "O=[N+]([O-])c1ccc(/C=N/N=C/c2ccc(F)cc2)s1", "cell line": "MDBK", "assay": "CCK-8", "setting": "72 h", "CC50 [µM]": "88 ± 66.8"}
{"Structure (SMILES)": "Nc1ccn([C@@H]2O[C@H](CO)[C@@H](O)[C@H]2F)c(=O)n1", "cell line": "CAKI-1", "assay": "sulforhodamine B", "setting": "11 days, galactose medium", "CC50 [µM]": "> 250"}
{"Structure (SMILES)": "COc1ccc(/C=N/N=C/c2ccc([N+](=O)[O-])o2)cc1", "cell line": "MDBK", "assay": "CCK-8", "setting": "72 h", "CC50 [µM]": "41.1 ± 3.15"}
{"Structure (SMILES)": "CCOC(=O)C(NC(=O)CN1C(=O)N/C(=C\\c2ccc3c(c2)OCO3)C1=O)C(C)C (centres unmarked)", "cell line": "MDBK", "assay": "cell growth or viability, CCK-8", "setting": "72 h", "CC50 [µM]": "> 266"}
{"note": "For quick reference, copied from above:"}
{"Structure (SMILES)": "C#CCN1CCc2c3n(c4ccccc24)C(=O)C(=C)CC3(C(=O)OC)C1 (centres unmarked)", "cell line": "HePAD38", "assay": "cell growth or viability, MTS", "setting": "14 days", "CC50 [µM]": 13.3}
{"Structure (SMILES)": "O=C(Nc1cc(F)c(F)c(F)c1)c1ccc(F)c(S(=O)(=O)N2CCC(NC(=O)C3CCC4(CC3)CCN(C(=O)CC35CC6CC(CC(C6)C3)C5)CC4)CC2)c1", "cell line": "HePAD38", "assay": "cell growth or viability", "CC50 [µM]": "> 60"}
